Measurements from different studies.
Parts stem from different laboratories: compare values within a part only.

Set 1 — method: RNA Bind-n-Seq; form: RNA; sample: in vitro; concentration: 365 nM; reference: no-protein control; direction: higher = stronger binding; measurement: RBNS enrichment (R)
Target: RNA binding protein fox-1 homolog 2, RRM domain, GST-SBP tag (RBFOX2, Homo sapiens, UniProt O43251-10, residues 100-194)
Notes: natural RNA segment, single round, ends assumed
Shared flanks, not repeated: GGGAGUUCUACAGUCCGACGAUC … UGGAAUUCUCGGGUGCCAA
Construct (chain): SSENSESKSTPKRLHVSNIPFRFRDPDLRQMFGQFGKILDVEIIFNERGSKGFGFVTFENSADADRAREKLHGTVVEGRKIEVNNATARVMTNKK
CUCCCCAGCUUGCGCAGAGACGUGUGCGUCCCACGUCCCUUGCCGUGCUCUCCCUUUUGGUAGGUGUUACUUUAAGAACUGCAGUCAGACUUGCUGUUGCCUGACAAUUA: 0.506
AGUUAAGUCACAGCUUAAUGUGUAGAUAUGAGCUGUUUACAGUGGUGACUAUAUAUAAUUGGGGAGAAGAAGGGAAGAGAGCAGCAGUAGCUUAAGCCUGUUGCUAAGAA: 2.12
UGGCCAGGGCAUCAGACACAGGAGGAUCCCAGAACGGCAGCACUGAGCCCCUGCUCCCAGAUCCCUCUGAACCGCCGAGCAACAGCAAAACUAUGUGACAACACUUCUCC: 0.575
CAGGGAGGCCUUUCCGCGGUGGGAUGUUGAGCUGAGGCCGGAGGAGAAGUAGCAGUCGCUGGCAGAGCACACAGGCUGCUCUGGGGGAUGAGCUGGUGCGUUUAAGGAAC: 0.71
UGGCUUCUGGGAGCCUUUUGACAGCUGGUCCCUGCCUCGGUUGAUUGUGCAUGGAACUAAAAUGUUAUUGCCUAAUCACUCCAACCCUGCCCCUUUCUGUCCCAUCCUUC: 0.44
CAAAAUCAGGAUGUUUUUCACUGUCCAUUGCUUUGUGUUUUAAUAAACAAUUUGCAGUGACACUCUGUGUUGGGACUGAGUUCGAACUUGAUCUCAAAGCGCUGAAGUGA: 0.283
AAUUUUGCUACUGUUAUGAAUCAUAAGAUGAAAUAUCUGGUAUGCAACCCACAGGUUGAGAACUACUGCUCUAAGCCAAAGAUGAAAAUGGGAUUUACAUGCAGAACAAA: 0.385
AAUAUUCUGAUUUUUAUCUAUUUCUUUAUUCAUAAAGUUGGCACAGAGUCACAAUGCAACCUAAAGUAGUUCAUGUAAGAAACAGAAUAUUUUGUCCUUUCUUCUCAUAC: 0.477
AACCAAAAGCUUCUGCACUUUGCUUCUGUUCUUCCUGUACAAGAAAUGCAAACGGCCACUGCAUUUUAAUGAUUGUUAUUCUUUUAUGAAUAAAAUGUAUGUAGAAACAA: 0.625
CUGGUGAUGUCCCAGUGUCUCAGAACUGAUCACUUGCUCCUCCUAUUGUGUGAACCACUCUUAGCAGGCAUUGCUACUGGAUUCUUAACUAGAGAAAACUUACAGAACAG: 0.377
CCUUCAGGCACCGACGCCCAACCUGCCGUGACCUGUGCUGUAUGAACAACCUCACUGAGGAUUUCCUCCCGGCAGAAAAGCAGCAAGCUCUGCAAAUAUCCCAAAGUUAU: 0.342
GCAGUGCCCCUUCAGAGCUGGCUGGGAGCUUGGCUCAGCCACCUCUUAGGGUGCCUGCCUCUGCCAUGGCAUCCUGUCCCUUUCCCAUGUGCUCGGUGUUCAGUGGUGUA: 0.784

Set 2 — method: Spec-seq; form: double-stranded DNA, one strand shown; sample: in vitro; concentration: not given; notes: whole probe, mean of replicates; reference: not given; direction: lower = stronger binding; measurement: relative binding energy; shared flanks, not repeated: GAGTCGTCTCGTCAGCAC … CCGTAGAGCACTCAGGTC
Target: POU, POU domain (Salpingoeca helianthica)
Construct (chain): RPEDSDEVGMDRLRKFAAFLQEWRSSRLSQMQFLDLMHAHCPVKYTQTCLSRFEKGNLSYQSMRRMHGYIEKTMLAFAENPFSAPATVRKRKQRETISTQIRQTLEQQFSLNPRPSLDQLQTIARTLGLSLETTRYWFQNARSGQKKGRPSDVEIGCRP
ATACTCAT: 1.22 ln ratio
ATGCTGAA: 1.18 ln ratio
ATCGCGAT: 1.31 ln ratio
ATCTCAAT: 0.838 ln ratio
ATATTTAT: -0.208 ln ratio
CTCCTAAT: 0.45 ln ratio
CGGCTAAT: 0.575 ln ratio
GTGGTAAT: 0.487 ln ratio
ATGCCTGC: 1.28 ln ratio
ATAGCAAT: 1.03 ln ratio
GGCTTAAT: 0.488 ln ratio
GTTATAAT: -0.698 ln ratio
ATCTTTAT: 0.352 ln ratio
CCTATAAT: 0.353 ln ratio
ATTTTTAT: 0.401 ln ratio
ATGCACGA: 1.33 ln ratio
ATAGCTAT: 0.798 ln ratio
GCCATAAT: 0.522 ln ratio
GGTCTAAT: 0.737 ln ratio
ATCTCCAT: 0.925 ln ratio
ATGCCATT: 1.13 ln ratio

Set 3 — method: protein-binding microarray; form: double-stranded DNA, one strand shown; sample: in vitro; concentration: 2200 nM top; notes: 60-bp whole probe; added: salmon DNA 0.4 mg/ml; reference: random background probes; direction: higher = stronger binding; measurement: fitted relative affinity; shared flanks, not repeated: GCCTAGCAC … GTCTTGATTCGCTTGACGCTGCTG
Target: Interferon regulatory factor 7, full length, phosphomimetic (IRF7, Homo sapiens, UniProt Q92985, residues 1-503, S471D/S472D/S475D/S476D/S477D/S483D/S484D/S487D)
Sequence of UniProt Q92985 (whole entry, unmodified, looked up): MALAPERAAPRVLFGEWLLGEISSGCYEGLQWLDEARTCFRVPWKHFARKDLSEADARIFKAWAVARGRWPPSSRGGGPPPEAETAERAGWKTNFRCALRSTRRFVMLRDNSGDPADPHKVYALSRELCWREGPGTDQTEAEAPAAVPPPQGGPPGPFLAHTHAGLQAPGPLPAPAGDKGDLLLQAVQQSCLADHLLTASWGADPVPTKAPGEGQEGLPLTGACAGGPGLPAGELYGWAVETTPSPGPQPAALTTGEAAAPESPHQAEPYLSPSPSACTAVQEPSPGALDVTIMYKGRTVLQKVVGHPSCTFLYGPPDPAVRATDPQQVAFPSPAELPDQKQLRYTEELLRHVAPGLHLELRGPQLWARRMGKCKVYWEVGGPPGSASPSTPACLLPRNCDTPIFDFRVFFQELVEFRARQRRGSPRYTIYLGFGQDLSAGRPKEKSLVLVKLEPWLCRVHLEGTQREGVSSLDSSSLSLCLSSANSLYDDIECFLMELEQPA
GACGGTGTCCTTTTCCTGACGTGCTAG: 0.846 z-score
GACGGACTGGGAACTGGGGACGTGCTA: -1.05 z-score
GACTATCTCAGTTTCGAGACGTGCTAG: 3.6 z-score
ATAGGTATCGGGACTGGGTTAGTGCTA: -0.276 z-score
AACGGTTTCGGGTTTCGGGACGTGCTA: 9.96 z-score
CAGAAGCCAGAGAGGACAGGGTGCTAG: -0.899 z-score
GACGCTATCCTACTGCTGACGTGCTAG: 1.19 z-score
CCAAACCTGTGCGCCGTGCCGTGCTAG: -0.0366 z-score
AGAATCTTAGATATTAAACTGTGCTAG: -0.68 z-score
TTAGGTATCGACTTTCGGGTAGTGCTA: 4.18 z-score
TTATGTCTGGGTATTTTTTCGTGCTAG: 1.08 z-score
GACGGACTGGGGTATCGCGACGTGCTA: -0.684 z-score
TTAGATTTCGGGACTGGGTTAGTGCTA: 0.933 z-score
ATCTTAATAAGGTTTCCAATCGTGCTA: 0.588 z-score
TTAGGTTTCTTTATCCTTTAGTGCTAG: 1.67 z-score
GTTTTTTGGTTTCTGGTTTAGTGCTAG: 5.66 z-score
TACGGTATCGACTATCGGGACGTGCTA: 0.295 z-score
GACGGACTGGGTATCGGAACGTGCTAG: -0.708 z-score
TTATGTTCCCTTTTCCTTTAGTGCTAG: 3.75 z-score

Set 4 — method: RNA Bind-n-Seq; form: RNA; sample: in vitro; concentration: not given; notes: RNA with constant flanks, ends assumed; reference: input RNA pool; direction: higher = stronger binding; measurement: bound/input enrichment
Target: RING finger protein unkempt homolog, zinc fingers 1-6, GST-SBP tag (UNK, Homo sapiens, UniProt Q9C0B0, residues 30-357)
Sequence of UniProt Q9C0B0 (30-357, looked up): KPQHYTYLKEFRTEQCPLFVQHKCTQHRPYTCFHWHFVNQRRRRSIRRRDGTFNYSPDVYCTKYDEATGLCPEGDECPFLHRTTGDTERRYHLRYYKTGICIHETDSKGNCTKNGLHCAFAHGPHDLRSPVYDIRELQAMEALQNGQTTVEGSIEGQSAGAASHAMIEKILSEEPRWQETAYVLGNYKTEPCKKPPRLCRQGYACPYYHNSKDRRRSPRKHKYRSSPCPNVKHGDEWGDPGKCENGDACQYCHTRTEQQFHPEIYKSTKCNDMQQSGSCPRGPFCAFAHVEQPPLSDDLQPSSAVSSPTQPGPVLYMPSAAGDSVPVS
Shared flanks, not repeated: GGGAGUUCUACAGUCCGACGAUC … CAACAGAGGAUUGAGCAUCA
AAAUAUUUUGAGAAUUCAGCUGAAACAGACAUUCCAAAAAUCACCAAAAAACUAUCUCAACCCGGAGAAUCAGAGCUUUUUGCAAGUUCUGGAUCAUUUUCAUUACAGAGCUCUAUACCA: 0.205 ratio
GUAUUUAAGUUUGCUGUAGAUUGUGUGUGUGUGUGCUAAGUAAAAGUUCCAUGAUUCACAAUUUCCGUAUUAACCCAUGUUGCAAAAGCUGUUACUGGCCAACAGAUUGUAAUGAUGUGU: 0.406 ratio
GCACGCCUUGCUAGUUUAAUGAAUCUUGGAAUGAGUUCUUCAUUGAAUCAACAAGGAGCUCACCGUGCACUGUCUUCUGCUAGUACUUCUUCCCAUAAUUUGCAGUCUAUAUUUAACAUU: 0.552 ratio
UGCAUUCUACGGCUGUUGGCCCAUUCAUGUCCUCUUGAUGUAUAUGCUGCUUGCCAGAGGUCCGCUUUCUGCAUACUUCAGCCCAUAAUAAUGAAAUCAGCAGUACUCACAUAUUUUGGG: 0.157 ratio
AUAUAGACCUAUGAUGUACAGGUACGACAUGUAUAGGUUACCUAGAUGUUAUGAGAAAUUUCCGUUUAUUGUGAGUACUCAAGUUGCUUAGAGAGCCACCAGGGUGAUUUGCUGCUGGCU: 2.69 ratio
AGGUUAACUCUGAGAGCCAUCAAACUGUGGGCCAAACGGCACAACAUCUAUUCCAAUAUAUCCGGUUUCCUCGGUGGUGUUUCCUGGGCUAUGCUAGUAGCAAGAACUUGCCAGCUUUAU: 0.184 ratio
CUGACACUACUCUUCACUGAGCUGGCAAAAGUAAUAGAAAGCUCAGCGAAGGGUUUCCCCCGUUUUAUUUCUGAUAUGUUAUCUAAGUGCAAAGUUCAGAAAGUGAUUCUUCAUUGUUUG: 0.187 ratio
UUCUUUCCCUUUUUCUUUCAGAGCUGUUGCGCAGCCAUUGGUACCUGUAUUGGGGAAACACCGCAUACAAGCAAGAAGCUUACAGCCUCAGUGGCGAAAAUUUUUUCAUGUCAGAGACCG: 0.279 ratio
UGCAAGCUGCCAAGACUGUCUCUGAACGGGGUCCGGUUUAAGCGGAUAUCGGGGACAUCCACCGCCUUCAAAAAUAUUGCUUCCAAAAUUGCCAAUGAGCUAAAGCUGUAACCCAGUGAU: 0.128 ratio
CAGGGACGUUUUGAUGUAAAAAUUGAAGUUAAGAGCUGAUCACAAGCACAAAUCUUUCCCACCCGCCAUUUAAUAAGUUAAAAAAAGAUACAAAAACAAAAACCUACUAGUCUUGAACAA: 2.75 ratio
GGGUCGUGGUUCAUCCAGUCCCUUUGCAGCAUGCUGAAGCUGUACGCGCACAAGCCCGAAUUUAUGCACAUUCUCACUCGCGUUAACAGGAAGGUGGCAACGGAAUUCGAGUCCUUCUCC: 0.173 ratio

Excerpt of the above (set 1):
CCUUCAGGCACCGACGCCCAACCUGCCGUGACCUGUGCUGUAUGAACAACCUCACUGAGGAUUUCCUCCCGGCAGAAAAGCAGCAAGCUCUGCAAAUAUCCCAAAGUUAU: 0.342
CUCCCCAGCUUGCGCAGAGACGUGUGCGUCCCACGUCCCUUGCCGUGCUCUCCCUUUUGGUAGGUGUUACUUUAAGAACUGCAGUCAGACUUGCUGUUGCCUGACAAUUA: 0.506
CAAAAUCAGGAUGUUUUUCACUGUCCAUUGCUUUGUGUUUUAAUAAACAAUUUGCAGUGACACUCUGUGUUGGGACUGAGUUCGAACUUGAUCUCAAAGCGCUGAAGUGA: 0.283
CAGGGAGGCCUUUCCGCGGUGGGAUGUUGAGCUGAGGCCGGAGGAGAAGUAGCAGUCGCUGGCAGAGCACACAGGCUGCUCUGGGGGAUGAGCUGGUGCGUUUAAGGAAC: 0.71
